{"data": "Measured values from different studies", "note": "Numbered parts are unrelated; each lists some results of a single study. Positions count from the first letter of the parent shown."}
{"data": "Set 1", "target": "RNA binding protein fox-1 homolog 2, RRM domain, GST-SBP tag (RBFOX2, Homo sapiens, UniProt O43251-10, residues 100-194)", "technique": "RNA Bind-n-Seq", "molecule type": "RNA", "medium": "in vitro", "concentration": "365 nM", "setting": "natural RNA segment, single round, ends assumed", "relative to": "no-protein control", "direction": "higher = stronger binding", "shared flanks, not repeated": "GGGAGUUCUACAGUCCGACGAUC … UGGAAUUCUCGGGUGCCAA", "Target sequence (chain)": "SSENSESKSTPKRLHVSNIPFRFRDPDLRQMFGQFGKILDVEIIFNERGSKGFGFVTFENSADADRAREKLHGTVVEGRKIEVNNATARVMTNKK"}
{"Oligonucleotide": "UUUGGGGUUGCCAUGGCCAAUGAGAUUUAUAAUCAUGAUCCUCUUGGGUGGUAGUUCCAAAGACACUACUAAUGUGCAGAGAGCGCUCCGGCCUCUGGUGCUGGCCACUA", "RBNS enrichment (R)": 0.299}
{"Oligonucleotide": "GUUCUUUAGUUAGCAGUUCAGGCUGGUUGGACAGGUUUGAAUCAAAUUGUACUUUGUUCCAUUGUUAAUUGAGAAACUGUUUCAAUAAAAUAUUCUUUUCUAUAGGUUGU", "RBNS enrichment (R)": 0.543}
{"Oligonucleotide": "CAGGGAUUCAUAGAGUUCCGGGCCUGGGAUUCUCCCAGCUGCGCCAUAGGUCAUCCUCAACAACCCAGAGGGUCCCUGCUCUGACAUCCUAGUCCCCGUGAGCCCUGCAG", "RBNS enrichment (R)": 0.261}
{"Oligonucleotide": "GGGUUGAUGAGGGCCCUGGCACCACUGUCACCACCCACCCCUUCCUACCAGCUGCUGCUAGCCCUCUGUGGUUGUGCACCCCUCUUGCCCCCAUUCAGGGGCCGACUAAC", "RBNS enrichment (R)": 0.353}
{"Oligonucleotide": "GCCCUUUUAUUUAUUGGACCAGAAACUCGCAUAUCACUUCCAGAGGAACAGGCCUCAGGAAUAUUUCUCCCUGGCCAGCCCUGCACUAGCUGGGGCAGGGGCAGAGGACA", "RBNS enrichment (R)": 0.337}
{"Oligonucleotide": "UUUCUUGGAAGUAGUUUGAUUGUUGAGAGAGACCUUUGAUCUGCAGUGUAAAUCUACCAGUCAUGGGCCAGAAGGGCAAAAGCCCAGCUUUCUCUUUGGAAAGACUCAGG", "RBNS enrichment (R)": 0.227}
{"Oligonucleotide": "UUUUCCCUUCCAAAAAUUGUCAACUGACUGAGGACAAAGAGAAAGCACCUCCCAGAAAGCUGUGAGCGUGGUUUGGUUCAGAACUCCAGCACCCUGUGCCAGGCACUGAC", "RBNS enrichment (R)": 0.352}
{"Oligonucleotide": "CAGGCAGGAGCCCACCCAUAGUUCUCUUCCCUAUGACGACUUCCCCAGAUAGCAUUAGCCACCCUGGGGGGCAGGGGGGGAAGAAUCCGGCUGUGGGGUAUCCACCUCGC", "RBNS enrichment (R)": 0.338}
{"data": "Set 2", "target": "Interferon regulatory factor 3, full length, phosphomimetic (IRF3, Homo sapiens, UniProt Q14653, residues 1-427, S386D/S396D/S398D/S402D/T404D/S405D)", "technique": "protein-binding microarray", "molecule type": "double-stranded DNA, one strand shown", "medium": "in vitro", "concentration": "2540 nM top", "setting": "60-bp whole probe", "with": "salmon DNA 0.4 mg/ml", "relative to": "random background probes", "direction": "higher = stronger binding", "shared flanks, not repeated": "GCCTAGCAC … GTCTTGATTCGCTTGACGCTGCTG", "Residues (chain)": "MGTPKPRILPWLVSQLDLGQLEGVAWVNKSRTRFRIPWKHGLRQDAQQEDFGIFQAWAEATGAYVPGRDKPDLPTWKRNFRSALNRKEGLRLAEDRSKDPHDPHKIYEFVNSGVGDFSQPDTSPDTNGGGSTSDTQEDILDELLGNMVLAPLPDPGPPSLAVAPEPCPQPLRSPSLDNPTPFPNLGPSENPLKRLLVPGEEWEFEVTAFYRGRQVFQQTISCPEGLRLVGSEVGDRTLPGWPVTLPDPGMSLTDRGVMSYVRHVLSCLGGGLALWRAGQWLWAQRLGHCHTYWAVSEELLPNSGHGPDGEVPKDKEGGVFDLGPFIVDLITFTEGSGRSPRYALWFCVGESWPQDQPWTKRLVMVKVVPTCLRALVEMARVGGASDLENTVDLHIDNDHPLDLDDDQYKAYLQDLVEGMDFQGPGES"}
{"Oligonucleotide": "GACGGACTGGTTTTCGGGACGTGCTAG", "fitted relative affinity": "0.337 z-score"}
{"Oligonucleotide": "TTAGGTATCCTACAGCTTTAGTGCTAG", "fitted relative affinity": "0.624 z-score"}
{"Oligonucleotide": "GACGGTATCCTTTTCCTGTCGTGCTAG", "fitted relative affinity": "8.03 z-score"}
{"Oligonucleotide": "GACGGTCTCGGACTGGTGACGTGCTAG", "fitted relative affinity": "-0.0887 z-score"}
{"Oligonucleotide": "GACGATTTCGGGACTGGACACGTGCTA", "fitted relative affinity": "1.82 z-score"}
{"Oligonucleotide": "GACGATTTCGGCTATCGAGACGTGCTA", "fitted relative affinity": "1.03 z-score"}
{"Oligonucleotide": "TTAGAACTGAGTTTCGATGAGTGCTAG", "fitted relative affinity": "1.02 z-score"}
{"Oligonucleotide": "TTAGAACTGAGTCTCGATTGGTGCTAG", "fitted relative affinity": "-0.648 z-score"}
{"Oligonucleotide": "TACGGACTGGGGTTTCGGGACGTGCTA", "fitted relative affinity": "0.555 z-score"}
{"Oligonucleotide": "TCACTTTTCTGTTGTCTGACTGTGCTA", "fitted relative affinity": "2.09 z-score"}
{"Oligonucleotide": "TACGGTATCGGGTATCGGGACGTGCTA", "fitted relative affinity": "1.73 z-score"}
{"Oligonucleotide": "GACGGTCTCGGACTGTGGACGTGCTAG", "fitted relative affinity": "0.045 z-score"}
{"Oligonucleotide": "TTAGGTTTCCTTCTCCATTAGTGCTAG", "fitted relative affinity": "10.2 z-score"}
{"Oligonucleotide": "AACGATTTCAGTTTCGAGACGTGCTAG", "fitted relative affinity": "4.67 z-score"}
{"Oligonucleotide": "GTGTATATATAATATATATTCGTGCTA", "fitted relative affinity": "0.32 z-score"}
{"Oligonucleotide": "TTAGATCTCAGACTGAATTAGTGCTAG", "fitted relative affinity": "0.143 z-score"}
{"Oligonucleotide": "TTTGGACTGCTTCTCCTTTAGTGCTAG", "fitted relative affinity": "-0.132 z-score"}
{"Oligonucleotide": "TCTGCTTTGCCTTCAGCCCGGTGCTAG", "fitted relative affinity": "-0.615 z-score"}
{"Oligonucleotide": "TTAGGTTTCCTTTCCCTCTAGTGCTAG", "fitted relative affinity": "10.2 z-score"}
{"data": "Set 3", "target": "ABI1, truncated, D143A, DHFR fusion (Arabidopsis thaliana)", "technique": "DHFR PCA, deep sequencing", "medium": "yeast", "setting": "methotrexate growth selection, single substitutions", "with": "(+)-ABA 1.4 µM", "relative to": "wild-type fitted maximum", "direction": "higher = stronger binding", "starting sequence": "PYL1, truncated, DHFR fusion (Arabidopsis thaliana); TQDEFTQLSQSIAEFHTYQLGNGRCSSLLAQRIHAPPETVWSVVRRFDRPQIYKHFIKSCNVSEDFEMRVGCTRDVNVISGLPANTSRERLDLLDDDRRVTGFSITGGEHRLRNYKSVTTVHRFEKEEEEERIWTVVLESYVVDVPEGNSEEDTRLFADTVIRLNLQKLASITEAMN; partner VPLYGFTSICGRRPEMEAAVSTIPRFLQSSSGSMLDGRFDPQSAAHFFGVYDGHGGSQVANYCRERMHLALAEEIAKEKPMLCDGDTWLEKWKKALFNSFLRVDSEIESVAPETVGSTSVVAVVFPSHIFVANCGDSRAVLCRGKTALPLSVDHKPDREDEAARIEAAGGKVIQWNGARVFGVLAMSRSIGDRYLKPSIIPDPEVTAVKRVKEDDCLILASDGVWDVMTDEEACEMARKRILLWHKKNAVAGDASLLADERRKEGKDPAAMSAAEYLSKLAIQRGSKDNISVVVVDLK"}
{"Substitution": "C60P", "relative binding score [%]": -7.07}
{"Substitution": "L93V", "relative binding score [%]": 68.7}
{"Substitution": "V161T", "relative binding score [%]": 11.4}
{"Substitution": "V100C", "relative binding score [%]": 27.7}
{"Substitution": "T6C", "relative binding score [%]": 53.2}
{"Substitution": "A35C", "relative binding score [%]": 24.2}
{"Substitution": "E131C", "relative binding score [%]": 63.6}
{"Substitution": "E38N", "relative binding score [%]": 26.8}
{"Substitution": "E151S", "relative binding score [%]": 45.8}
{"Substitution": "F157A", "relative binding score [%]": 3.17}
{"Substitution": "V44A", "relative binding score [%]": 7.98}
{"Substitution": "V78K", "relative binding score [%]": -7.89}
{"Substitution": "V76K", "relative binding score [%]": 2.95}
{"Substitution": "S26K", "relative binding score [%]": 4.7}
{"Substitution": "N149Q", "relative binding score [%]": 39.1}
{"Substitution": "A158P", "relative binding score [%]": -20.9}
{"Substitution": "F103I", "relative binding score [%]": 6.58}
{"Substitution": "G108N", "relative binding score [%]": -10}
{"data": "Set 4", "target": "Sal-like protein 4, full length isoform A (SALL4, Homo sapiens, UniProt Q9UJQ4, residues 1-1053)", "technique": "universal PBM", "molecule type": "double-stranded DNA, one strand shown", "medium": "in vitro", "concentration": "600 nM", "setting": "8-mer, flanks averaged, mean of replicates", "direction": "higher = stronger binding", "sequence of UniProt Q9UJQ4 (whole entry, looked up)": "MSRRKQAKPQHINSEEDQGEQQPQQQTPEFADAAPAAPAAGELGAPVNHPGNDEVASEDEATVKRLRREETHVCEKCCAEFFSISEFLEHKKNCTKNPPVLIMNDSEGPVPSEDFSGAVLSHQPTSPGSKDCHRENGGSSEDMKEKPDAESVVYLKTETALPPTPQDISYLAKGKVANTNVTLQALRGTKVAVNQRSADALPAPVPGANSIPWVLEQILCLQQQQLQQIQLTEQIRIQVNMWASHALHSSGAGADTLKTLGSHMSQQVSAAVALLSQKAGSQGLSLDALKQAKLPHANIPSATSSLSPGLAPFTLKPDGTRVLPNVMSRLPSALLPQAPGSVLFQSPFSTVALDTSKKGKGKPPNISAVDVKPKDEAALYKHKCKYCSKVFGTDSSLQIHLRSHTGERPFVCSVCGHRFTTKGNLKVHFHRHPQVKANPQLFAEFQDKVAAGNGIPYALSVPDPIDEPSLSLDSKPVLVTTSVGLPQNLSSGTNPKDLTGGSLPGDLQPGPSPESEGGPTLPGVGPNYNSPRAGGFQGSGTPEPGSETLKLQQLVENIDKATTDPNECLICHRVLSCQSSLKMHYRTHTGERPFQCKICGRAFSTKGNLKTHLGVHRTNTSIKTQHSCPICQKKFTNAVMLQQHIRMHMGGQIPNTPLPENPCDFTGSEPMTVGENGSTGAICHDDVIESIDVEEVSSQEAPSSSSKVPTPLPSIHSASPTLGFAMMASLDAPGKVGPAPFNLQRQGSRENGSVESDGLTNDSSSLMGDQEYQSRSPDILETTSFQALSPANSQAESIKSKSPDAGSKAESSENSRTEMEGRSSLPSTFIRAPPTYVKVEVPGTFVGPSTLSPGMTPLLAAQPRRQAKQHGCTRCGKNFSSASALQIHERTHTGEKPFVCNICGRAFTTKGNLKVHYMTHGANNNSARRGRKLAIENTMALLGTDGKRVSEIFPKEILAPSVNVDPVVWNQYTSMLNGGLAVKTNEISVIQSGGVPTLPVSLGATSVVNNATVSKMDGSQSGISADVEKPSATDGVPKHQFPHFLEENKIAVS"}
{"Oligonucleotide": "AACGGCAC", "E-score": -0.202}
{"Oligonucleotide": "CAAAGGAG", "E-score": 0.127}
{"Oligonucleotide": "AAATACGC", "E-score": 0.0978}
{"Oligonucleotide": "GATAGCCA", "E-score": -0.112}
{"Oligonucleotide": "CCGCCATA", "E-score": 0.0962}
{"Oligonucleotide": "CCCGAAGC", "E-score": -0.19}
{"Oligonucleotide": "AGATGTCC", "E-score": -0.0661}
{"Oligonucleotide": "ACAGAGGG", "E-score": -0.221}
{"Oligonucleotide": "CAATTAGA", "E-score": 0.143}
{"Oligonucleotide": "ACCATATC", "E-score": 0.0985}
{"Oligonucleotide": "CTATGTTA", "E-score": 0.189}
{"Oligonucleotide": "AGTTTCAT", "E-score": 0.23}
{"Oligonucleotide": "ACCGATCC", "E-score": -0.3}
{"Oligonucleotide": "AAGACGCC", "E-score": -0.259}
{"Oligonucleotide": "AATATCAG", "E-score": 0.273}
{"Oligonucleotide": "GGTGCATA", "E-score": 0.0689}
{"Oligonucleotide": "AGGGGTTC", "E-score": -0.304}
{"Oligonucleotide": "AGGGTCTC", "E-score": -0.225}
{"Oligonucleotide": "AACCGTGA", "E-score": -0.0532}
{"Oligonucleotide": "CCGGAGAG", "E-score": -0.271}
{"Oligonucleotide": "CTCGCTTA", "E-score": 0.123}
{"Oligonucleotide": "AAAAACAA", "E-score": 0.264}
{"Oligonucleotide": "CCCTATGC", "E-score": -0.0636}
{"Oligonucleotide": "GGAATCTA", "E-score": -0.00376}
{"Oligonucleotide": "CTACCCAC", "E-score": -0.271}
{"note": "Some of these lines once more (set 1):"}
{"Oligonucleotide": "UUUGGGGUUGCCAUGGCCAAUGAGAUUUAUAAUCAUGAUCCUCUUGGGUGGUAGUUCCAAAGACACUACUAAUGUGCAGAGAGCGCUCCGGCCUCUGGUGCUGGCCACUA", "RBNS enrichment (R)": 0.299}
{"Oligonucleotide": "GUUCUUUAGUUAGCAGUUCAGGCUGGUUGGACAGGUUUGAAUCAAAUUGUACUUUGUUCCAUUGUUAAUUGAGAAACUGUUUCAAUAAAAUAUUCUUUUCUAUAGGUUGU", "RBNS enrichment (R)": 0.543}
{"Oligonucleotide": "CAGGGAUUCAUAGAGUUCCGGGCCUGGGAUUCUCCCAGCUGCGCCAUAGGUCAUCCUCAACAACCCAGAGGGUCCCUGCUCUGACAUCCUAGUCCCCGUGAGCCCUGCAG", "RBNS enrichment (R)": 0.261}
{"Oligonucleotide": "GGGUUGAUGAGGGCCCUGGCACCACUGUCACCACCCACCCCUUCCUACCAGCUGCUGCUAGCCCUCUGUGGUUGUGCACCCCUCUUGCCCCCAUUCAGGGGCCGACUAAC", "RBNS enrichment (R)": 0.353}
{"Oligonucleotide": "GCCCUUUUAUUUAUUGGACCAGAAACUCGCAUAUCACUUCCAGAGGAACAGGCCUCAGGAAUAUUUCUCCCUGGCCAGCCCUGCACUAGCUGGGGCAGGGGCAGAGGACA", "RBNS enrichment (R)": 0.337}
{"Oligonucleotide": "UUUCUUGGAAGUAGUUUGAUUGUUGAGAGAGACCUUUGAUCUGCAGUGUAAAUCUACCAGUCAUGGGCCAGAAGGGCAAAAGCCCAGCUUUCUCUUUGGAAAGACUCAGG", "RBNS enrichment (R)": 0.227}
{"Oligonucleotide": "UUUUCCCUUCCAAAAAUUGUCAACUGACUGAGGACAAAGAGAAAGCACCUCCCAGAAAGCUGUGAGCGUGGUUUGGUUCAGAACUCCAGCACCCUGUGCCAGGCACUGAC", "RBNS enrichment (R)": 0.352}
{"Oligonucleotide": "CAGGCAGGAGCCCACCCAUAGUUCUCUUCCCUAUGACGACUUCCCCAGAUAGCAUUAGCCACCCUGGGGGGCAGGGGGGGAAGAAUCCGGCUGUGGGGUAUCCACCUCGC", "RBNS enrichment (R)": 0.338}
